Published values of several laboratories.
Compare with care: the assays were run in different laboratories. ± gives the spread as reported. In brackets after ≈: the same amount, converted by molar mass.
rep main protease: Replicase polyprotein 1ab, main protease (rep, Severe acute respiratory syndrome coronavirus 2, UniProt P0DTD1)

SMILES | tested on | test | system | conditions | scale | measurement | value
COC(=O)C(N)Cc1ccc(OP2(=O)COC(Cn3ccc(N)nc3=O)CO2)cc1 (centres unmarked) | cowpox virus | viral replication |  |  |  | IC50 | 35 µM
CN1CCN(CCCN2c3ccccc3Sc3ccc(C(F)(F)F)cc32)CC1 | SARS-CoV-2 | viral replication, GFP plate reader screen |  | cell-based |  | EC50 | 6.46 µM
O=C(Nc1ccc(N2CCN(C(=O)c3cnccn3)CC2)nc1)c1cnccn1 | Mycobacterium tuberculosis | bacterial growth | H37Ra-lux | 168 h |  | IC90 | > 64 µM
CC1c2ccccc2C(CCCN(C)C)c2cc(C(F)(F)F)ccc21 (centres unmarked) | SARS-CoV-2 | viral replication, GFP plate reader screen | BetaCov/Belgium/GHB-03021/2020 | cell-based |  | EC50 | > 100 µM
O=C(O)COCCN1CCN(C(c2ccccc2)c2ccc(Cl)cc2)CC1 (centres unmarked) | Ebola virus Zaire | HIV/EBOV pseudovirion entry | A549 | 48 h |  | IC50 | > 100 µM
COc1cc2c(OCCCC#N)c3c(c(-c4ccc5c(c4)OCO5)c2cc1OC)C(=O)OC3 | VSV pseudotyped with Ebola virus GP | viral entry, refers to: GFP | HeLa |  |  | IC50 | 0.0931 ± 0.0268 µM
CNC1CC(c2ccc(Cl)c(Cl)c2)c2ccccc21 (centres unmarked) | SARS-CoV-2 | viral replication, GFP plate reader screen |  | cell-based |  | EC50 | 8.32 µM
Cn1c(=O)ccc2ccc(F)c(CCNC[C@H]3CN(c4cnc5c(n4)NC(=O)CO5)C(=O)O3)c21 | Francisella tularensis |  |  |  |  | MIC90 | < 0.015 µg/mL
CNc1nc(N)ncc1-c1cn([C@@H]2O[C@H](CO)[C@@H](O)[C@@]2(C)F)cn1 | Nipah virus |  |  | concentration not given |  | antiviral activity | inactive
NC(=O)c1cccnc1N1CCC(n2cc(Cc3ccccc3)nn2)CC1 | Lassa mammarenavirus | viral replication | Huh-7 | 10 µM, 72 h |  | remaining activity | 62%
COC(=O)CC[C@H](NC(=O)[C@H](CC(=O)OC)NC(=O)OCc1ccccc1)C(=O)N[C@H](C(=O)N[C@@H](CC(=O)OC)C(=O)CF)C(C)C | rep main protease | reporter gene (mKate2), inhibitor |  | 20 µM |  | inhibition | -0.475%
O=C(Nc1nc(-c2ccccn2)cs1)c1ccc(F)cc1 | Mycobacterium tuberculosis | microbial growth, broth dilution | H37RV |  |  | MIC | 0.098 to 0.19 µM (≈ 0.0293 to 0.0569 µg/mL)
CNCCC=C1c2ccccc2C=Cc2ccccc21 | SARS-CoV-2 | viral replication, GFP plate reader screen | BetaCov/Belgium/GHB-03021/2020 | cell-based |  | EC50 | > 50.1 µM
CN(C)CCOC(c1ccc(Cl)cc1)c1ccccn1 (centres unmarked) | Marburg virus | HIV/MARV pseudovirion entry | A549 | 48 h |  | IC50 | 38.8 ± 12.1 µM
O=C(Nc1ccc(N2CCCN(C(=O)c3cnccn3)CC2)nc1)c1ccc(Cl)cc1 | Mycobacterium tuberculosis | bacterial growth | H37Ra-lux | 168 h |  | IC90 | > 64 µM
CC(C)=CCc1c(O)ccc(C(=O)/C=C/c2ccc(O)cc2)c1O | SARS-CoV-2 | cytopathic effect | Vero E6 | 50 µM, replicate run |  | mean inhibition | 33.3%
NC(=O)C1CN(CCCCC(c2ccc(F)cc2)c2ccc(F)cc2)CCN1CC(=O)Nc1c(Cl)cc(N)cc1Cl (centres unmarked) | SARS-CoV-2 | viral replication, high-content imaging screen |  | cell-based |  | EC50 | > 100 µM
O=c1ccn([C@@H]2O[C@](F)(CO)[C@@H](O)[C@H]2O)c(=O)[nH]1 | Lassa virus |  | ZsGreen reporter |  |  | concentration abolishing replication | 7.8 µM
O=C1c2c(O)c(=O)ccn2N([C@@H]2c3ccccc3SCc3c2ccc(F)c3F)[C@@H]2COCCN12 | Influenza A virus | viral replication | A(H7N3) | mean |  | EC50 | 0.00011 ± 3e-05 µM
Cn1cnc(Cn2c(=O)[nH]/c(=N\c3cc4cn(C)nc4cc3Cl)n(Cc3cc(F)c(F)cc3F)c2=O)n1 |  |  | human, mild renal impairment | oral, 375 mg, treatment-related decreased GFR, Mild severity |  | patients with adverse event | 0%
CCCCN(CCCC)CCCNC(=O)c1cc(-c2ccc(Cl)s2)nc2ccccc12 | SARS-CoV-2 | cytopathic effect, cell-based CPE | USA_WA1/2020 |  |  | AC50 | 14.1 µM
O=C(Nc1ccc(N2CCN(C(=O)c3cnccn3)CC2)nc1)c1ccncc1 | Mycobacterium tuberculosis | bacterial growth | H37Ra-lux | 168 h |  | IC90 | > 64 µM
COC(=O)N[C@H](C(=O)N1CCC[C@H]1c1ncc(-c2ccc3cc(-c4ccc5nc([C@@H]6CCCN6C(=O)[C@@H](NC(=O)OC)C(C)C)[nH]c5c4)ccc3c2)[nH]1)C(C)C | SARS-CoV-2 | viral replication, high-content imaging screen |  | cell-based |  | EC50 | > 100 µM
Nc1ncnc2c([C@@H]3N[C@H](CO)[C@@H](O)[C@H]3O)c[nH]c12 | Sudan ebolavirus | viral replication | HeLa, Boniface | 1.6 µM |  | inhibition | 6.4%
CC[C@H](C)[C@H](NC(=O)[C@H](CC(C)C)NC(=O)[C@H](Cc1c[nH]c2ccccc12)NC(=O)[C@H](CCC(N)=O)NC(=O)[C@@H](NC(=O)[C@H](Cc1ccccc1)NC(=O)[C@H](C)NC(=O)[C@H](CCCCNC(=O)COCCOCCNC(=O)COCCOCCNC(=O)CC[C@H](NC(=O)CCCCCCCCCCCCCCCCCCC(=O)O)C(=O)O)NC(=O)[C@H](CCC(N)=O)NC(=O)[C@H](C)NC(=O)[C@@H](NC(=O)[C@H](CCCCN)NC(=O)[C@H](CC(=O)O)NC(=O)[C@H](CC(C)C)NC(=O)C(C)(C)NC(=O)[C@@H](NC(=O)[C@H](CO)NC(=O)[C@H](Cc1ccc(O)cc1)NC(=O)[C@H](CC(=O)O)NC(=O)[C@H](CO)NC(=O)[C@@H](NC(=O)[C@H](Cc1ccccc1)NC(=O)[C@@H](NC(=O)CNC(=O)[C@H](CCC(=O)O)NC(=O)C(C)(C)NC(=O)[C@@H](N)Cc1ccc(O)cc1)[C@@H](C)O)[C@@H](C)O)[C@@H](C)CC)[C@@H](C)CC)C(C)C)C(=O)N[C@@H](C)C(=O)NCC(=O)NCC(=O)N1CCC[C@H]1C(=O)N[C@@H](CO)C(=O)N[C@@H](CO)C(=O)NCC(=O)N[C@@H](C)C(=O)N1CCC[C@H]1C(=O)N1CCC[C@H]1C(=O)N1CCC[C@H]1C(=O)N[C@@H](CO)C(N)=O |  | refers to: anti-drug antibodies | healthy human subjects | 5/5/8/10 mg escalating, titer increase ≥4-fold |  | subjects with treatment-boosted ADA | 0%

SMILES | tested on | test | system | conditions | scale | measurement | value
O=C(CCC1CCCCC1)Nc1ncc(Cc2ccccc2)s1 | Histoplasma capsulatum | microbial growth |  |  |  | MIC | 1.3 to 2.5 µM (≈ 0.427 to 0.821 µg/mL)
CCc1c(C(=O)C(N)=O)c2c(OCC(=O)O)cccc2n1Cc1ccccc1 | Daboia russelii |  | mouse | intravenous, 60 µg/mouse, 24 h, drug mixture, together with: KA venom 2.5 x LD50 preincubated |  | survival | 0%
Cc1ccnc(CC(C)N(C)C(=O)c2cc3cnccc3nc2C)c1 (centres unmarked) | Lassa mammarenavirus | viral replication | Huh-7 | 10 µM, 72 h |  | remaining activity | 26%
CC1(C)CC[C@@]2(CO)C(=C3C=C[C@@H]4[C@@]5(C)CC[C@H](O)[C@@](C)(CO)[C@@H]5CC[C@@]4(C)[C@]3(C)C[C@@H]2O)C1 | rep main protease | reporter gene (mKate2), inhibitor |  | 20 µM |  | inhibition | 0.0675%
COc1ccc(Nc2cc(C(=O)NCCCN3CCN(c4ccc(OC)cc4)CC3)c3ccccc3n2)cc1 | SARS-CoV-2 | cytopathic effect | USA_WA1/2020 | round 2, 5-point |  | efficacy | 46.8%
CCCCCCCCCCCCN(C)C(=O)CP(=O)(O)O | Bacillus anthracis |  | Ames/IA |  |  | MIC90 | 0.78 µg/mL (≈ 2.43 µM)
Cc1nc2n(n1)CC(=O)N[C@@H](C(C)C)CN(C(=O)c1cc(C)oc1C)CC(=O)N[C@@H](CC(C)C)c1nc(cs1)C(=O)N[C@H]2Cc1ccccc1 | Lassa mammarenavirus | viral replication | Huh-7 | 10 µM, 72 h |  | remaining activity | 90%
CCN(CC)CCNC(=O)c1[nH]c2ccccc2c1Sc1ccc(Cl)cc1 | SARS-CoV-2 | cytopathic effect, cell-based CPE | USA_WA1/2020 | round 2, 5-point dilution |  | AC50 | 12.6 µM
NCCCCCc1cnc[nH]1 | Ebola virus Zaire | HIV/EBOV pseudovirion entry | A549 | 48 h |  | IC50 | > 100 µM
COCc1c(-c2nc(CCc3ccccc3)n[nH]2)noc1C | Lassa mammarenavirus | viral replication | Huh-7 | 10 µM, 72 h |  | remaining activity | 37%
O=C(Nc1ncc(Cc2cccc3ccccc23)s1)c1ccccc1 | Histoplasma capsulatum | microbial growth |  |  |  | MIC | > 20 µM
COc1cccc(CNC(=O)C2CCN(Cc3cc4ccccc4n3Cc3ccccc3)CC2)c1OC | SARS-CoV-2 | cytopathic effect | USA_WA1/2020 | round 2, 5-point |  | maximum response | 41.8%
COc1cccc2c1C(=O)c1c(O)c3c(c(O)c1C2=O)C[C@@](O)(C(=O)CO)C[C@@H]3O[C@H]1C[C@H](N)[C@H](O)[C@H](C)O1 | SARS-CoV-2 | viral replication, GFP plate reader screen |  | cell-based |  | EC50 | 8.04 µM
CN(CC1CCOC2(CCN(C(=O)C3(c4ccccc4)CCCC3)CC2)C1)S(=O)(=O)CCCCl (centres unmarked) | Venezuelan equine encephalitis virus | viral replication |  |  |  | EC50 | 10 µM
O=C(O)c1n[nH]cc1CN1CCCN(Cc2ccccc2F)CC1 | Lassa mammarenavirus | viral replication | Huh-7 | 10 µM, 72 h |  | remaining activity | 29%
CNC(=O)[C@@H](NC(=O)[C@H](CC(C)C)[C@H](O)C(=O)NO)C(C)(C)C | Daboia russelii |  | mouse | intravenous, 60 µg/mouse, 24 h, drug mixture, together with: WB venom 2.5 x LD50 preincubated |  | survival | 0%
CN(C)c1cccc(C(=O)NCC2CCN(c3cc(-c4ccc(Cl)cc4)n[nH]3)CC2)c1 | SARS-CoV-2 | cytopathic effect | USA_WA1/2020 | retest, 8-point, duplicates |  | maximum response | 35.9%
O[C@](Cn1cncn1)(Cn1cnc(/C=C\c2ccc(OCC(F)(F)C(F)F)cc2)n1)c1ccc(F)cc1F | SARS-CoV-2 | viral replication, high-content imaging screen | BetaCov/Belgium/GHB-03021/2020 | cell-based |  | EC50 | > 100 µM
Cc1cc(C)cc(-c2ccc(CN3CCCC3C(=O)NCc3cccc(F)c3)cc2)c1 (centres unmarked) | SARS-CoV-2 | cytopathic effect | USA_WA1/2020 | round 1, 5-point |  | efficacy | 87.1%
O=C1NCCCOc2cccc(c2)C2c3ccc(cc3CCN2C(=O)c2ccccn2)Oc2ccc(O)c1c2 (centres unmarked) | Lassa mammarenavirus | viral replication | Huh-7 | 10 µM, 72 h |  | remaining activity | 62%
Nc1ncnc2c1ncn2[C@@H]1O[C@@H]2COP(=O)(O)O[C@H]3[C@@H](O)[C@H](n4cnc5c(=O)[nH]cnc54)O[C@@H]3COP(=O)(O)O[C@H]2[C@H]1O | Chikungunya virus | upregulated Reactome pathway, RNA sequencing, refers to: Generic Transcription Pathway (R-HSA-212436) | HFF-1 |  | relative to: CHIKV-infected untreated | fold enrichment | 1.84
CCCCN(CCCNC(=O)c1cc(Nc2cccc(SC)c2)nc2ccccc12)Cc1ccccc1 | SARS-CoV-2 | cytopathic effect, cell-based CPE | USA_WA1/2020 | round 2, 5-point dilution |  | AC50 | 3.55 µM
Cc1nc(C(=O)NCCn2ncc3ccccc3c2=O)cs1 | Lassa mammarenavirus | viral replication | Huh-7 | 10 µM, 72 h |  | remaining activity | 14%
CC(C)(C)NCc1ccc(Nc2ccnc3cc(Cl)ccc23)cc1O | SARS-CoV-2 | cytopathic effect, cell-based CPE | USA_WA1/2020 |  |  | AC50 | 14.1 µM
CN(C)C1CCCN(C(=O)c2ccc3cc[nH]c3c2)CC1 (centres unmarked) | Lassa mammarenavirus | viral replication | Huh-7 | 10 µM, 72 h |  | remaining activity | 30%
